Measurements from different studies.
Lines come from different studies, so protocols differ. ± gives the spread as reported.

Structure (SMILES) | assay | system | setting | how to read | quantity | result
CCCC[C@H](NC(=O)CNC(=O)CNC(=O)CN1CCN(CC(=O)O)CCN(CC(=O)O)CC1)C(=O)N[C@H]1CC(=O)NCCCC[C@@H](C(N)=O)NC(=O)[C@H](Cc2c[nH]c3ccccc23)NC(=O)[C@H](CCCNC(=N)N)NC(=O)[C@@H](Cc2ccccc2)NC(=O)[C@H](Cc2c[nH]cn2)NC1=O [copper-64 labelled] | – | female C57 mouse, B16/F1 melanoma | intravenous, 0.037 MBq, 24 h | reference: tumour over lung | uptake ratio | 11.5
[11CH3]c1ccc2nc(C3CCC3)n(-c3ccc4[nH]ncc4c3)c2n1 | extrapolated from mouse | human female, Urinary bladder wall | – | – | absorbed dose | 2.8 µSv/MBq
O=c1[nH]c(=O)n(C2OC(CO)C(O)C2O)cc1-n1nnc2c1CCC1C(CO)C1CC2 (mixture of isomers) | fluorescence lifetime | methanol | – | – | fractional contribution τ3 | 0.38%
CC(C)(C)NCC(SS(=O)(=O)O)c1ccccc1 (stereo not drawn) | – | Swiss Webster CFW mouse, female, plasma | intravenous, 15 mg/kg, from 0 h to infinity | – | Vss | 0.984 L/kg
COc1ccc(/C=C/c2ccc(-c3ccc(C)cn3)nc2)cc1 | TCSPC | toluene | – | – | radiative decay rate constant | 0.69 ns⁻¹
CCCC[C@H](NC(=O)[C@H](CC(C)C)N(C)C(=O)CNC(=O)[C@@H](NC(=O)[C@H](Cc1ccccc1)NC(=O)[C@H](CCCCN)NC(=O)[C@@H](N)CC(=O)O)C(C)C)C(N)=O | – | anesthetized Gottingen minipig | subcutaneous, 3 µg/kg | reference: baseline | heart rate | -1.46 ± 0.46%
O=C(CCc1ccc(CNC(C(=O)O)C2CCCCC2)cn1)NO (stereo not drawn) | – | healthy male humans, plasma | oral, 60 mg, single dose, geometric mean | – | AUC(0-t) | 280 ng·h/mL
O=c1c(Cl)c(Cl)cnn1Cc1ccccc1 | – | liquid growth medium | – | – | precipitation onset concentration | 50 to 100 µM
CCCC(CCC(=O)O)NC(=O)c1ccc(O)c(OC)c1 (stereo not drawn) | LC-MS extracted ion chromatogram | Sprague-Dawley rat, male and female, pooled plasma | oral, 200 mg/kg, 1 h | – | peak area | 172000 cps
CC12CC(c3ccc(S(C)(=O)=O)cc3)C3=C4CCC(=O)C=C4CCC3C1CCC2(O)C(F)(F)C(F)(F)F (stereo not drawn) | – | human, fasted, plasma | oral, 4 mg, alone, without itraconazole | – | AUC(0-3 d), geometric mean | 247 ng·h/mL
O=C([O-])CN1CCN(CC(=O)[O-])CCN(C(CCC(=O)NCCCCCNC(=O)CCC(NC(=O)NC(CCC(=O)O)C(=O)O)C(=O)O)C(=O)O)CC1.[64Cu+2] (stereo not drawn) | radio-HPLC | mice, urine | 120 min | – | intact complex in urine | < 10%
CC[C@@H](C)N([11CH3])C(=O)c1nc(-c2ccccc2Cl)c2ccccc2n1 | – | male rhesus monkey, plasma | intravenous, baseline | – | time to 50% parent radioligand | 35.1 min
CC(=O)[CH](C(C)=O)[Pt-2]1([S+](C)C)[O]C(C)=CC(C)=[O+]1 (stereo not drawn) | – | rat, blood | intravenous, 5 mg/kg, single dose | – | ALT | 31.3 ± 6.5 U/L
CCNC(=O)OCc1c(COC(=O)NCC)c(-c2ccc(OC)cc2)n2c1Cc1ccccc1-2 | – | BALB/c nude mice | concentration not given, day 10 | reference: control mice | decrease in RBC and haemoglobin | ~20%
CCOC(=O)c1[nH]c(C)c(/C=C/c2c(I)c(C)c3n2[B-](F)(F)[N+]2=C(C)C(I)=C(C)C2=C3c2cc(OC)cc(OC)c2)c1C | – | DMSO | – | – | Stokes shift | 690 cm⁻¹
CC(C)c1cnc(-c2cc(Cl)ccc2F)cc1Nc1ccncc1C(=O)NC(CO)CO | measured: Hypotension | solid tumour patients | oral, dose not given, phase I monotherapy | – | treatment-related serious adverse events | 2.4%
CC1=C(/C=C/C(=O)N2CCN(C(N)=O)CC2)C(C)(C)CCC1 | – | mouse male, retina | oral, 120 mg/kg, single dose | – | concentration in retina | 94 µM
NC(=O)[C@@H](CCCCNC(=O)CNC(=O)CCC(=O)NCCc1c[nH]cn1)NC(=O)[C@@H](CCC(=O)O)NC(=O)[C@@H](CCCCNC(=O)CNC(=O)CCC(=O)NCCc1c[nH]cn1)NC(=O)[C@@H](Cc1ccc(O)cc1)NC(=O)CN1CCN(CC(=O)O)CCN(CC(=O)O)CCN(CC(=O)O)CC1 [indium-111 labelled] | SPECT | human, CEACAM5-expressing tumours, psoas muscle | intravenous, dose not given, 24 h, together with: TF2 pretargeting 75 mg | – | muscle activity concentration | 0.18 %ID/kg
CCC1C=CC2CCN(C(=O)C3CCC4C=CC5(CCCN5C(=O)C(Cc5ccccc5Cl)NC(C)=O)C(=O)N43)C2C(=O)N1CC(=O)OC (stereo not drawn) | – | mouse | subcutaneous vs osmotic pump, 100 mg/kg | reference: subcutaneous over osmotic pump | Cmax ratio | ~10
Cn1c(=O)oc2ccc(-c3ccc(CC(C#N)NC(=O)C4CNCCCO4)c(F)c3)cc21 (stereo not drawn) | – | human | oral, 40 mg once daily, TEAE, multiple ascending dose | – | urine WBC positive incidence | 11.1%
CC(C)(O)c1ncc([S@](N)(=O)=NC(=O)Nc2c3c(cc4c2CCC4)CCC3)s1 | – | healthy human volunteers, plasma | oral, 50 mg twice daily, day 14, fed, enteric-coated tablet | – | dose-normalised AUC(0-tau) | 1220 ng·h/mL/mg
CCc1cc(Nc2nc(-c3ccc(-n4cnc(C)c4)c(F)c3)cs2)c(C)cc1C | – | human, both sexes, plasma | oral, 200 mg, day 1, multiple dose, geometric mean | – | apparent terminal volume (Vz/F) | 522000 mL
C=CC(=O)Nc1cc(Nc2nccc(-c3cn(C4CC4)c4ccccc34)n2)c(OC)cc1NC | radio-HPLC | human male, feces | oral, 110 mg, 96 to 240 h, sample holds 16.61% dose | reference: sample radioactivity | share of radioactivity | 1.35%
Brc1ccccc1-c1nnc(CSc2nnnn2-c2ccccc2)o1 | metabolic stability | rat, liver microsomes | 1 h | – | compound remaining | 0.5%
COC(=O)C(c1ccccc1Cl)N1CCC2SC(=O)C=C2C1 (stereo not drawn) | LC-MS/MS | human plasma extract | 2 ng/mL spiked, 24 h, 4 °C, autosampler | – | measured concentration | 2.2 ± 0.2 ng/mL
N=C(N)NCCC[C@@H]1NC(=O)[C@H](Cc2c[nH]c3ccccc23)NC(=O)[C@@H](CC2CCCCC2)NC(=O)[C@@H]2CCCN2C(=O)[C@@H](NC(=O)CCc2ccccc2)CCCNC1=O | two-compartment model | C57BL/6J mouse, plasma plasma | oral, 1 mg/kg single dose | – | K21 | 2.09 h⁻¹
COC[C@@H](CC(C)C)NC(=O)c1ccc(C)c(CO)c1 | LC-MS | Sprague-Dawley rat, both sexes, rat liver microsomes | 10 µM of parent drug, 10 min, pH 7.4, together with: NADPH | reference: parent drug at time zero | metabolite peak area | 1%
C[C@H](NC(=O)COC(=O)[C@H](C)NC(=O)CO)C(=O)O | – | water | pH 8, 65 °C | – | depolymerization half-life | 36 s
NC[C@@H](C(=O)Nc1ccc(-c2cn[nH]c2)cc1)c1ccccc1 | OECD 405 eye irritation | New Zealand White rabbit, eye | topical, 0.1%, 96 h (day 5), scale 0 to 2 | direction not given | iris score | 0
CC(=O)N[C@H](CC(=O)O)C(=O)N[C@H](Cc1c[nH]c2ccccc12)C(=O)N[C@H](Cc1ccccc1)C(=O)N[C@H](CCCCN)C(=O)N[C@H](C)C(=O)N[C@H](Cc1ccccc1)C(=O)N[C@H](Cc1ccc(O)cc1)C(=O)N[C@H](CC(=O)O)C(=O)N[C@H](CCCCN)C(=O)N[C@@H](C(=O)N[C@H](C)C(=O)N[C@H](CCC(=O)O)C(=O)N[C@H](CCCCN)C(=O)N[C@H](Cc1ccccc1)C(=O)N[C@H](CCCCN)C(=O)N[C@H](CCC(=O)O)C(=O)N[C@H](C)C(=O)N[C@H](Cc1ccccc1)C(N)=O)C(C)C | – | statin-treated high-risk CHD men, plasma | oral, 100 mg daily, day 13, 0 to 8 h, mean, undetectable set to 0 | – | AUC(0-t) | 6.94 ng·h/mL
